Experimental data pooled from the literature.
Protocols differ between the studies behind these lines. Numbers after ± are the reported error.

CC(C)C[C@@H]1NC(=O)[C@@H]2CCCN2C(=O)[C@H](CO)NC(=O)[C@@H](NC(=O)[C@H](Cc2c[nH]cn2)NC(=O)[C@H](CO)NC(=O)[C@H](Cc2ccc(O)cc2)NC(=O)[C@H](CC(=O)O)NC(=O)CNC(=O)CN2CCN(CC(=O)O)CCN(CC(=O)O)CCN(CC(=O)O)CC2)CSSC[C@@H](C(=O)N[C@H](C(=O)N[C@@H](Cc2ccc(O)cc2)C(=O)N2CCC[C@H]2C(=O)N[C@@H](CC(=O)O)C(=O)N2CCC[C@H]2C(=O)N[C@@H](CCC(=O)O)C(=O)NCC(=O)NCC(=O)NCC(N)=O)[C@@H](C)O)NC(=O)[C@H](CCCCN)NC(=O)[C@H](Cc2c[nH]c3ccccc23)NC(=O)[C@H](Cc2c[nH]c3ccccc23)NC(=O)[C@@H]2CCCN2C(=O)[C@H](Cc2ccc(O)cc2)NC(=O)[C@H](Cc2ccc(O)cc2)NC(=O)[C@H](CCCNC(=N)N)NC1=O [gallium-68 labelled] — heart to muscle ratio (PET/CT; NOD-SCID mice, heart over thigh muscle; 45 to 60 min): ~3.8
N=C(N)NCCC[C@@H]1NC(=O)[C@H](Cc2c[nH]c3ccccc23)NC(=O)[C@@H](CC2CCCCC2)NC(=O)[C@@H]2CCCN2C(=O)[C@@H](NC(=O)CCc2ccccc2)CCCNC1=O — beta rate constant (two-compartment model; C57BL/6J mice, plasma; oral, 1 mg/kg): 0.03 min⁻¹
CSCOC1C(=O)C2(C)C(OCSC)CC3OCC3(OC(C)=O)C2C(OC(=O)c2ccccc2)C2(O)CC(OC(=O)C(O)C(C=C(C)C)NC(=O)OC(C)(C)C)C(C)=C1C2(C)C (centres unmarked) — clearance (female Sprague-Dawley rat, plasma; intravenous, 1 mg/kg): 105 mL/min/kg
Cn1c(=O)oc2ccc(-c3ccc(CC(C#N)NC(=O)C4CNCCCO4)c(F)c3)cc21 (centres unmarked) — subjects with TEAE (measured: monocyte count increased; human; 60 mg single dose, fasted): 0%
C[Si](C)(C)C[C@H](CN)CC(=O)O — performance time (neuromuscular coordination; Wistar rat male; oral, 300 mg/kg, 3 h): 178 s
Cc1ccccc1-c1cc(N2CCNCC2)ncc1N(C)C(=O)C(C)(C)c1cc(C(F)(F)F)cc(C(F)(F)F)c1 — duration of quantifiable plasma levels (human, plasma; dose not given): 10 days
Nc1ncnc2c1ncn2CC(=O)N[C@@H](Cc1ccccc1)C(=O)N[C@@H](Cc1ccccc1)C(=O)N[C@H]1C(O)O[C@H](CO)[C@@H](O)[C@@H]1O (some centres unmarked) — pH of hydrogelation (water; 3.0 wt%, pH-triggered gelation): ~5
CC/C=C\C/C=C\C/C=C\C/C=C\C/C=C\CCCCOC(CC)C(=O)O (centres unmarked) — radioactivity concentration ([14C] label; Wistar rat, blood; dose not given, 3 day): not detected
O=[N+]([O-])[O-].[NH3+][Pt-2]1([NH3+])[O]C(c2ccccc2)=CC(c2ccccc2)=[O+]1 (centres unmarked) — chemical stability (1H NMR; water; up to 25 d, 37 °C): no effect
NC12CNCCNCC(NCc3ccc(CNC(=O)CCCC(=O)NCc4ccc(-c5nncnn5)cc4)cc3)(CNCCNC1)CNCCNC2.[64Cu+2] — mean absorbed dose (OLINDA dosimetry; spleen; 24 h pretargeting interval, together with: huA33-TCO pretargeting): 0.0146 rad/mCi
CC(C)C[C@H](NC(=O)C[C@H](O)[C@H](CC(C)C)NC(=O)[C@H](Cc1c[nH]cn1)NC(=O)CNC(=O)[C@@H](NC(=O)[C@H](C)NC(=O)[C@H](Cc1c[nH]c2ccccc12)NC(=O)[C@H](CCC(N)=O)NC(=O)[C@@H](Cc1ccccc1)NC(=O)CCNC(=O)CCNC(=O)CN1CCN(CC(=O)O)CCN(CC(=O)O)CCN(CC(=O)O)CC1)C(C)C)C(N)=O [lutetium-177 labelled] — absorbed dose (MIRD; mouse PC-3 xenograft, kidneys; intravenous, 50 MBq, without PA): 3.5 Gy
Cc1ccc(O)c2c3c(nn12)CCC(C)(NC(=O)c1ccc(-n2cnc4cc(C(=O)O)ccc42)cc1Cl)C3 (centres unmarked) — slope (linear PK/PD model, measured: cuticle bleeding time; Sprague Dawley rat, male; intravenous): 5.93
CC[C@@H](C)N([11CH3])C(=O)c1nc(-c2ccccc2Cl)c2ccccc2n1 — total volume of distribution (PET Logan analysis; male rhesus monkey, cerebellum; intravenous, dose not given, baseline): 11.3 mL/cm³
C[N+](C)(C)C[C@@H](O)CC(=O)O.O=C([O-])[C@H](O)Cc1ccccc1 — pH (water; concentration not given): 3.96 ± 0.3
COc1cc2c(cc1OC)CN(CCCCn1ccc3cc(OCC[18F])ccc31)C2 — tracer uptake (male CD-1 mouse, blood; intravenous, 2 h): 1.89 %ID/g
Nc1nc2c(ncn2CC(=O)N[C@@H](Cc2ccccc2)C(=O)N[C@@H](Cc2ccccc2)C(=O)O)c(=O)[nH]1 — nanofiber width (TEM; hydrogel in water; 2.0 wt%, pH 5.0 or 7.4, together with: alkaline phosphatase at pH 7.4): 15 nm
CC(C)(C)NC(=O)NC1CC=C(c2cc3c(Nc4cc5ncsc5cc4F)ncnc3s2)CC1 (racemic) — intrinsic clearance (human liver microsomes; 1 µM): < 12 mL/min/g protein
CNC(=O)N[C@]1(C)CCC[C@@]2(C)C3CC[C@@]4(C)C[C@]3(CCC21)CC4=O (single isomer, unassigned) — CL/F (rat, plasma; oral, 2 mg/kg): 0.697 L/min
COCC1CN(C2CCN(c3cc(OC)c(Nc4ncc(Br)c(Nc5ccc6c(c5P(C)(C)=O)OCCO6)n4)cc3C)CC2)C1 — grade ≥3 treatment-related adverse events (human; oral, dose not given; baseline: patients): 22.2%
Cc1cc2c(cc1C1(c3ncc(C(=O)O)cn3)CC1)C(C)(C)CCC2(C)C — LDL level (Sprague-Dawley rat, male, plasma; oral, 100 mg/kg, 6 h, sesame oil vehicle): 9 ± 5.5 mg/dL
[11CH3]c1ccc2nc(C3CCC3)n(-c3ccc4[nH]ncc4c3)c2n1 — absorbed radiation dose (human male, skin): 1.8 µSv/MBq
CCCC(CCC)NC(=O)c1ccc(O)c(O)c1 — AUC(0-last) ratio (female Sprague-Dawley rats, plasma; oral, 200 mg/kg of parent drug; baseline: 200 over 20 mg/kg dose): 43.7
Cc1ccc(OCC(=O)N(Cc2cccs2)c2ccn[nH]2)cc1 — oral bioavailability (beagle dog, male, plasma; oral gavage, 10 mg/kg): 1.26%
COC(=O)C(c1ccccc1Cl)N1CCC(SCC(=O)c2cccc(OC)c2)C(=CC(=O)O)C1 (mixture of isomers) — deviation from nominal (HPLC-MS/MS; feline EDTA plasma; 100 ng/mL, 48 h, -20 °C, storage stability): 0%
COc1cc(NC(C)=O)c2c(c1O)-c1c(OC)c(OC)cc3c1C(C2)N(C)CC3 (centres unmarked) — remaining compound (rat brain homogenate; 0.5 µg/mL, 24 h, room temperature, post-preparative storage): 100 ± 5%
NCC(=O)N1CCC[C@H]1C(=O)N1C[C@H](O)C[C@H]1C(=O)O — log β (37 °C, MAH complex, ionic strength 0.15, together with: Fe(III)): 20.8
CCCC[C@H](NC(C)=O)C(=O)N[C@H]1CC(=O)NCCCC[C@@H](C(=O)N[C@@H](C(=O)N2CCC[C@@H]2C(N)=O)C(C)C)NC(=O)[C@H](Cc2c[nH]c3ccccc23)NC(=O)[C@H](CCCN=C(N)N)NC(=O)[C@@H](Cc2ccc3ccccc3c2)NC(=O)[C@@H]2CCCN2C1=O — haematocrit (dog; day 1, start of treatment): 43%
Cc1ccc(-c2ccc(-c3cc4sccc4o3)cn2)nc1 — fluorescence quantum yield (dioxane; together with: quinine bisulfate reference): 0.5
CCCC[C@H](NC(=O)CNC(=O)CNC(=O)CN1CCN(CC(=O)O)CCN(CC(=O)O)CC1)C(=O)N[C@H]1CC(=O)NCCCC[C@@H](C(N)=O)NC(=O)[C@H](Cc2c[nH]c3ccccc23)NC(=O)[C@H](CCCNC(=N)N)NC(=O)[C@@H](Cc2ccccc2)NC(=O)[C@H](Cc2c[nH]cn2)NC1=O [copper-64 labelled] — tissue uptake (female C57 mouse, B16/F1 melanoma, heart; intravenous, 0.037 MBq, 4 h): 0.41 ± 0.24 %ID/g
Cc1ccc(/N=N/c2c(O)ccc3ccccc23)c(C)c1 — freeze-thaw stability deviation (rat whole blood; 16.0 µg/L, freeze-thaw cycle 1): -0.3%
C=C(c1ncc(C(=O)O)cn1)c1cc2c(cc1C)C(C)(C)CCC2(C)C — LDL level (Sprague-Dawley rat, male, plasma; oral, 100 mg/kg, 9 h, sesame oil vehicle): 11 ± 7 mg/dL
COc1ccc(-c2ccn(CC[C@](C)(C(=O)NO)S(C)(=O)=O)c(=O)c2)c(F)c1 — free AUC (CF-1 mouse, female; subcutaneous, 300 mg/kg): 23700 ± 300 ng·h/mL

Some of these lines once more:
CCCC[C@H](NC(=O)CNC(=O)CNC(=O)CN1CCN(CC(=O)O)CCN(CC(=O)O)CC1)C(=O)N[C@H]1CC(=O)NCCCC[C@@H](C(N)=O)NC(=O)[C@H](Cc2c[nH]c3ccccc23)NC(=O)[C@H](CCCNC(=N)N)NC(=O)[C@@H](Cc2ccccc2)NC(=O)[C@H](Cc2c[nH]cn2)NC1=O [copper-64 labelled] — tissue uptake (female C57 mouse, B16/F1 melanoma, heart; intravenous, 0.037 MBq, 4 h): 0.41 ± 0.24 %ID/g
Cc1ccc(/N=N/c2c(O)ccc3ccccc23)c(C)c1 — freeze-thaw stability deviation (rat whole blood; 16.0 µg/L, freeze-thaw cycle 1): -0.3%
C=C(c1ncc(C(=O)O)cn1)c1cc2c(cc1C)C(C)(C)CCC2(C)C — LDL level (Sprague-Dawley rat, male, plasma; oral, 100 mg/kg, 9 h, sesame oil vehicle): 11 ± 7 mg/dL
COc1ccc(-c2ccn(CC[C@](C)(C(=O)NO)S(C)(=O)=O)c(=O)c2)c(F)c1 — free AUC (CF-1 mouse, female; subcutaneous, 300 mg/kg): 23700 ± 300 ng·h/mL
